Measured values gathered from unrelated publications.
Every numbered part comes from another study and shows a few of its results, in no order.
Chain of UniProt Q9C0B0 (30-357, looked up): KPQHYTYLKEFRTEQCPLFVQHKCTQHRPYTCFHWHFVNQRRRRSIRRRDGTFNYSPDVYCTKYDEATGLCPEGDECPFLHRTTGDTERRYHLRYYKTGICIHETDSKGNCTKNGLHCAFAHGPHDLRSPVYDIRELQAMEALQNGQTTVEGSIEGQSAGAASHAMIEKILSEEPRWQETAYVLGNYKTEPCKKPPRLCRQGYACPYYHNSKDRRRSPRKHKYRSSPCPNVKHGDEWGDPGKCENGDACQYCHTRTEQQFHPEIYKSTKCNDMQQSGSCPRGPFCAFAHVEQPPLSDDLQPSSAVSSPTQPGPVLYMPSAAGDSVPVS

Sample 1 — technique: protein binding microarray; molecule type: double-stranded DNA, one strand shown; sample: in vitro; concentration: not given; relative to: not given; direction: higher = stronger binding
Target: Histone acetyltransferase KAT6A, winged helix 1, GST fusion (KAT6A, Homo sapiens, UniProt Q92794, residues 1-85)
Setting: 8-mer, flanks averaged, mean of 2 arrays, mostly near background
Residues (chain): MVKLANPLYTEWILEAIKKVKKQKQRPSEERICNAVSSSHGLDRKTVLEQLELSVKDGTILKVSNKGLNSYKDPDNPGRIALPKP
| Oligonucleotide | E-score |
| --- | --- |
| ACTTGTGC | -0.0714 |
| GTGTACAC | 0.0196 |
| CTATATTA | -0.0213 |
| ATCGCGGC | 0.427 |

Sample 2 — technique: competition protein-binding microarray; molecule type: double-stranded DNA, one strand shown; sample: in vitro; concentration: 2 µM; together with: Pho4 competitor, 0.05 µM; direction: higher = stronger binding
Target: Centromere-binding protein 1, full length, His-tagged (CBF1, Saccharomyces cerevisiae, UniProt P17106, residues 1-351)
Chain of UniProt P17106 (whole entry, looked up): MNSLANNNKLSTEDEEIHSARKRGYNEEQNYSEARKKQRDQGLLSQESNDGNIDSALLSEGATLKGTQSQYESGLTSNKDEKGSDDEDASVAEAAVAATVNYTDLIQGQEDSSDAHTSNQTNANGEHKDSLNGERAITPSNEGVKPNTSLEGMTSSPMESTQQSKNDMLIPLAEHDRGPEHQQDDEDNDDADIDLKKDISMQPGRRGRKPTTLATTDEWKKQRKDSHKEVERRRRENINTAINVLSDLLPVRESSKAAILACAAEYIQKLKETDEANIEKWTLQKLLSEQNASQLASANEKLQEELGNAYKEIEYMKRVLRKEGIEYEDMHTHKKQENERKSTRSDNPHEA
Setting: whole 60-bp probe, lowest competitor level
| Oligonucleotide | fluorescence intensity [a.u.] |
| --- | --- |
| AACTTGTGCTTGAATCAAATGGTTACAGTGGACAGTGTCTTGATTCGCTTGACGCTGCTG | 66.8 |
| TTCTTCCAACACCGACACGTTGTTCTCGCTCTCTTCGTCTTGATTCGCTTGACGCTGCTG | 76.8 |
| CTAACGAAGGTTTGCTTGGTGGGTGACAAGCCAAGTGTCTTGATTCGCTTGACGCTGCTG | 63.8 |

Mixed results
| Substance | target | assay | test system | conditions | scale | measurement | value |
| --- | --- | --- | --- | --- | --- | --- | --- |
| GGGAGUUCUACAGUCCGACGAUCCAAGAACCAAUAUACACUGCAAACAUGAGGCCGUAUACCAUCAAUCUGUGAAUAAGAACAGGAUGCUGGAAGAGAGUGAAGCAAUACUCGGGUUAGAUGGGGUAGACAUGUGGGCUAUAUCAACAGAGGAUUGAGCAUCA | RING finger protein unkempt homolog, zinc fingers 1-6, GST-SBP tag (UNK, Homo sapiens, UniProt Q9C0B0, residues 30-357) | RNA Bind-n-Seq | RNA, in vitro | not given, RNA with constant flanks, human and mouse sites, ends assumed | relative to: input RNA pool, higher = stronger binding | bound/input enrichment | 0.367 ratio |
| PhoQ, residues 284 288 289 292 302 303 STVVAA | PhoP, residues 12 14 15 18 19 LWHVM (Escherichia coli, UniProt P23836) | Sort-seq, measured: YFP reporter | E. coli | PhoQ-PhoP variant library, together with: 10 µM Mg2+ | relative to: high Mg2+ state, higher = stronger signaling | fold induction | 9.94 |

Repeated from above (sample 2):
| Oligonucleotide | fluorescence intensity [a.u.] |
| --- | --- |
| TTCTTCCAACACCGACACGTTGTTCTCGCTCTCTTCGTCTTGATTCGCTTGACGCTGCTG | 76.8 |
